# Results gathered from unrelated publications.
# Numbered parts are unrelated; each lists some results of a single study.

# Set 1
# Target: RING finger protein unkempt homolog, zinc fingers 1-6, GST-SBP tag (UNK, Homo sapiens, UniProt Q9C0B0, residues 30-357)
# UniProt Q9C0B0, sequence (30-357, looked up): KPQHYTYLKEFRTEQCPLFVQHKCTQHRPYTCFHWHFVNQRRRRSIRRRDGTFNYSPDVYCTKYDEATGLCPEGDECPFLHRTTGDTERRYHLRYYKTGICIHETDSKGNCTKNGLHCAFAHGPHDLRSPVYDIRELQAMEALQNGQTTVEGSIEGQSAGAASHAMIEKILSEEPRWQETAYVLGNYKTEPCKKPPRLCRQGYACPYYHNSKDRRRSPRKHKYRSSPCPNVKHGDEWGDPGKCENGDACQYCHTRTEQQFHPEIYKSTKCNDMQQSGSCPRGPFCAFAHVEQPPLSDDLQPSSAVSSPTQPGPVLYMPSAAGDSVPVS
# Technique: RNA Bind-n-Seq
# Form: RNA
# Sample: in vitro
# Tested at: not given
# Setting: RNA with constant flanks, human and mouse sites, ends assumed
# Reference: input RNA pool
# Direction: higher = stronger binding
# Constant ends, left off below: GGGAGUUCUACAGUCCGACGAUC … CAACAGAGGAUUGAGCAUCA
Oligonucleotide,bound/input enrichment
CAAGGCGGUUUCAGAGAAGUUCGGAAUGAGUAUGGGUCAAGAAUAGGAGGAAAUGAAGGGAUAGAUGUCCCCAUUCCAAGAUUUGCUGUUGGCAUUGUAAUAGGAAGAAAUGGAGAGAUG,3.47 ratio
GCAAAACCUUUGCUAGCAAAGCGCCUUUUGUGCCGGGCUGUGGCUCGCUAUCGACAUCUCGUCCGUUACCAAGGCUGGGUUUCCUACUGAUUUCCCUCCUCCUCUGCUUUCACAGGCUCG,0.143 ratio
GUAACCAUCUACCGGGAAGAAGGCAUCGUAGGAUUUUUUGCGGGUCUCAUUCCUCGCCUCCUAGGUGACAUCAUUUCUUUGUGGCUGUGUAACUCACUGGCCUAUCUCAUCAAUACCUAU,0.318 ratio
UUUCCUAAAGCCAUCAUGCCUUGAUAAAUAUAUAUGAUCAUUGAAAUACUUUUUAACAAAAACAGAUUCUAUAUUAUAUAUAUAUAUAUAUAUUAAAAAAUAUAUAGAGAUGCUUUCACA,4.57 ratio
AAGGGCAACUAUUCGGAGCGCGUGGGCGCCGGCGCCCCGGUCUAUCUGGCCGCGGUGCUCGAGUACUUGACUGCCGAGAUCCUGGAGCUUGCCGGCAACGCGGCGCGCGACAACAAGAAG,0.151 ratio

# Set 2
# Target: Max-binding protein MNT, bHLH-zipper, MAX partner unstated (MNT, Homo sapiens, UniProt Q99583, residues 220-300)
# Technique: protein-binding microarray
# Form: double-stranded DNA, one strand shown
# Sample: in vitro
# Tested at: not given
# Setting: k-mer, scored over probes, only values ≥0.25
# Direction: higher = stronger binding
# Target sequence (chain): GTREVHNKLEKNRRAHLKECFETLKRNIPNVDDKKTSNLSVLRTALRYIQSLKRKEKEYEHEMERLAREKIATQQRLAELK
Oligonucleotide,E-score
CCCACACC,0.314
CACACGTG,0.495
GTGGTAAC,0.253
CGCGTGAG,0.353
CACGGGAC,0.289

# Set 3
# Target: Prothrombin, mature alpha-thrombin (F2, Homo sapiens, UniProt P00734)
# Technique: aptamer microarray, sandwich
# Form: DNA with 2'F-ANA
# Sample: in vitro
# Tested at: 200 nM
# Setting: whole 15-mer aptamer, many near background
# Together with: Cy3 exosite-II aptamer, 400 nM
# Direction: higher = stronger binding
Oligonucleotide,mean fluorescence intensity
GGTTGGTGTGGTTGG (2'F-ANA at 2 4 5 8 10 11 12 13 14),52.1 a.u.
GGTTGGTGTGGTTGG (2'F-ANA at 1 2 3 6 7 10 12 13),77.7 a.u.
GGTTGGTGTGGTTGG (2'F-ANA at 3 5 7 10 12),66.6 a.u.
GGTTGGTGTGGTTGG (2'F-ANA at 1 2 3 4 6 7 8 9 12 15),344 a.u.

# Further values, each from its own experiment
Substance,target,assay,test system,setting,scale,quantity,value
"PhoQ, residues 284 288 289 292 302 303 TNASYF","PhoP, residues 12 14 15 18 19 LYHSL (Escherichia coli, UniProt P23836)","Sort-seq, refers to: YFP reporter",E. coli,"PhoQ-PhoP variant library, together with: 10 µM Mg2+","reference: high Mg2+ state, higher = stronger signaling",fold induction,2.6

# A few entries again (set 3):
Oligonucleotide,mean fluorescence intensity
GGTTGGTGTGGTTGG (2'F-ANA at 1 2 3 6 7 10 12 13),77.7 a.u.
GGTTGGTGTGGTTGG (2'F-ANA at 3 5 7 10 12),66.6 a.u.
